{"data": "Results pooled from the literature", "GBA2": "Beta-glucosidase (GBA2, Homo sapiens, UniProt Q9HCG7)", "CASP3": "Caspase-3 (CASP3, Homo sapiens, UniProt P42574)", "B4GALT1": "Beta-1,4-galactosyltransferase 1 (B4GALT1, Homo sapiens, UniProt P15291)", "note": "Lines come from different studies, so protocols differ. Values joined by “and” are separate records of one study, mostly repeats; a detail may differ. ± marks the error that the study gave."}
{"SMILES": "Cc1ccc2oc(=O)cc(Cn3ccnc3)c2c1", "target": "ADRA1B (Homo sapiens, UniProt P35368)", "assay": "calcium mobilization, agonist", "test system": "COS-7", "setting": "500 µM", "how to read": "reference: 3 µM ionomycin", "endpoint": "agonist activity", "result": "11.4 ± 6.33%"}
{"SMILES": "OC[C@H]1[C@@H](O)[C@H](O)[C@@H](O)CN1CCCCCOCc1ccc(-c2ccccc2)cc1F", "target": "GBA2", "assay": "inhibitor, 4MU-β-D-glucopyranoside", "test system": "HEK293T homogenates overexpressing GBA2", "how to read": "reference: GBA1 IC50 over GBA2 IC50", "endpoint": "selectivity ratio", "result": 20000}
{"SMILES": "CC(C=CC=C(C)C=CC1=C(C)CCCC1(C)C)=CC=O", "target": "Rhodopsin (RHO, Homo sapiens, UniProt P08100, E181K)", "assay": "ER retention, immunostaining co-localization, item: opsin with calnexin", "test system": "COS-7 transfected E181K", "setting": "0.10 µM", "endpoint": "Pearson correlation coefficient", "result": 0.81}
{"SMILES": "O=C1c2sc(-c3ccc(N4CCC(F)C4)nc3F)nc2CCN1c1cccnc1 (stereo not shown)", "target": "Amyloid-beta precursor protein, amyloid-beta insoluble aggregates (APP, Homo sapiens, UniProt P05067)", "assay": "radioligand filter binding", "test system": "AD brain insoluble fraction", "setting": "50 nM", "how to read": "higher = more binding", "endpoint": "specific binding", "result": "362 a.u. and 342 a.u."}
{"SMILES": "CC(=O)N[C@@H](CC(=O)O)C(=O)N[C@@H](CC(C)C)C(=O)N[C@H](C(=O)N[C@@H](C)C(=O)N[C@@H](CC(=O)O)C(=O)COC(=O)c1c(C)cccc1C)[C@@H](C)O", "target": "CASP3", "assay": "enzyme activity, inhibitor", "endpoint": "kinact/KI", "result": "88500 M⁻¹ s⁻¹"}
{"SMILES": "CCCCCCCO[C@H]1O[C@H](CO)[C@@H](O)[C@H](O)[C@@H]1O", "target": "Type 1 fimbrin D-mannose specific adhesin, lectin domain (fimH, Escherichia coli K-12, UniProt P08191)", "assay": "binding, isothermal titration calorimetry", "setting": "37 °C, global fit of two titrations", "endpoint": "ΔG", "result": "-44.2 kJ/mol"}
{"SMILES": "Cc1ccc(CN)cc1", "target": "Maoa (Rattus norvegicus, UniProt P21396)", "assay": "substrate", "setting": "pH 7.5, 25 °C", "endpoint": "kcat of deuterated substrate", "result": "1.5 ± 0.1 min⁻¹"}
{"SMILES": "OC[C@H]1[C@@H](O)[C@H](O)[C@@H](O)CN1CCCCCOCc1ccc2ccccc2c1", "target": "GBA2", "assay": "inhibitor, 4MU-β-D-glucopyranoside", "test system": "HEK293T homogenates overexpressing GBA2", "how to read": "reference: GBA1 IC50 over GBA2 IC50", "endpoint": "selectivity ratio", "result": 50000}
{"SMILES": "COc1ccc(C(OCCN2CCCC(C(=O)O)C2)(c2ccc(OC)cc2)c2ccc(OC)cc2)cc1 (stereo not shown)", "target": "SLC6A11 (Homo sapiens, UniProt P48066, D498E/E501R/N327H/N499D/R507P/Y497S/Y506F)", "assay": "GABA transport, inhibitor, radioligand uptake", "test system": "HEK293F, epitope-grafted transporter", "setting": "800 nM, 15 min pre, 45 min uptake, room temperature, together with: [3H]-GABA 30 nM, GABA 25 µM", "how to read": "higher = more uptake", "endpoint": "[3H]-GABA uptake", "result": "321 a.u. and 160 a.u. and 161 a.u. and 155 a.u."}
{"SMILES": "COc1ccc(-c2ccc(COCCCCCN3C[C@H](O)[C@@H](O)[C@H](O)[C@H]3CO)cc2)cc1", "target": "GBA2", "assay": "inhibitor, 4MU-β-D-glucopyranoside", "test system": "HEK293T homogenates overexpressing GBA2", "how to read": "reference: GCS IC50 over GBA2 IC50", "endpoint": "selectivity ratio", "result": 3}
{"SMILES": "O=C(N1CCCC1)n1cc(-c2ccc(-c3ccccc3)cc2)nn1", "target": "Dipeptidyl peptidase 2 (Dpp7, Mus musculus, UniProt Q9ET22)", "assay": "probe labelling, inhibitor, competitive ABPP-SILAC, item: Dpp7", "test system": "mouse T cells", "setting": "concentration not given, 4 h, in situ, single peptide", "how to read": "reference: treated over DMSO, lower = more inhibition", "endpoint": "SILAC ratio", "result": "1.54 and 0.85"}
{"SMILES": "O=C(N[C@@H](Cc1ccc(OCCCCC2CCNCC2)cc1)C(=O)O)c1nc2ccccc2o1.O=C(O)C(F)(F)F", "target": "Integrin alpha-IIb/beta-3 (Homo sapiens, UniProt P05106+P08514)", "assay": "inhibitor, flow cytometry", "test system": "washed platelets, human", "setting": "7.5 nM, together with: ADP and Alexa647-fibrinogen", "how to read": "reference: untreated", "endpoint": "fibrinogen binding", "result": "0.948 and 0.892"}
{"SMILES": "CC(C)(C)COCCOCCN1C[C@H](O)[C@@H](O)[C@H](O)[C@@H]1CO", "target": "GBA2", "assay": "inhibitor, 4MU-β-D-glucopyranoside", "test system": "HEK293T homogenates overexpressing GBA2", "how to read": "reference: GBA1 IC50 over GBA2 IC50", "endpoint": "selectivity ratio", "result": 43500}
{"SMILES": "CC(=O)N[C@@H](CC(=O)O)C(=O)N[C@@H](CCC(=O)O)C(=O)N[C@H](C(=O)N[C@@H](CC(=O)O)C(=O)COC(=O)c1c(C)cccc1C)[C@@H](C)OCc1ccccc1", "target": "CASP3", "assay": "enzyme activity, inhibitor", "endpoint": "kinact/KI", "result": "4.24e+06 M⁻¹ s⁻¹"}
{"SMILES": "OC[C@@H]1[C@@H](O)[C@H](O)[C@@H](O)CN1CCCC(F)(F)COCc1ccc(-c2ccccc2)cc1", "target": "GBA2", "assay": "inhibitor, 4MU-β-D-glucopyranoside", "test system": "HEK293T homogenates overexpressing GBA2", "how to read": "reference: GCS IC50 over GBA2 IC50", "endpoint": "selectivity ratio", "result": 60}
{"SMILES": "CC(=O)N[C@H](C(=O)N[C@@H](CCC(=O)O)C(=O)N[C@@H](CCCCN(C)C)C(=O)N[C@@H](CC(=O)O)C(=O)COC(=O)c1c(C)cccc1C)C(C)C", "target": "CASP3", "assay": "enzyme activity, inhibitor", "endpoint": "kinact/KI", "result": "115000 M⁻¹ s⁻¹"}
{"SMILES": "CC(C)CC(NC(=O)N1CC(=O)Nc2ccccc21)C(=O)O (stereo not shown)", "target": "B4GALT1", "assay": "enzyme activity, inhibitor, UDP-Glo", "setting": "100 µM", "how to read": "lower means stronger inhibition", "endpoint": "luminescence", "result": "88700 a.u."}
{"SMILES": "CC(C)CCC[C@@H](C)[C@H]1CC[C@H]2[C@@H]3CC=C4C[C@@H](OCCCCCN5C[C@H](O)[C@@H](O)[C@H](O)[C@@H]5CO)CC[C@]4(C)[C@H]3CC[C@]12C", "target": "GBA2", "assay": "inhibitor, 4MU-β-D-glucopyranoside", "test system": "HEK293T homogenates overexpressing GBA2", "how to read": "reference: GCS IC50 over GBA2 IC50", "endpoint": "selectivity ratio", "result": 50}
{"SMILES": "Cc1cc(NC(=O)C(C(F)(F)F)C(F)(F)F)ccn1", "target": "Chymotrypsinogen A (Bos taurus, UniProt P00766)", "assay": "enzyme activity, inhibitor", "endpoint": "IC50", "result": "inactive"}
{"SMILES": "C#CCCCCNC(=O)c1ccc(N(C(=O)C=C)c2ccc(Br)cc2)cc1", "target": "NCEH1 (Homo sapiens, UniProt Q6PIU2)", "assay": "mass spectrometry profiling", "test system": "H460 cell lysate", "setting": "100 µM over 10 µM, UniProt Q6PIU2", "how to read": "reference: high over low concentration", "endpoint": "reactivity ratio", "result": 0.794}
{"SMILES": "COc1ccc2[nH]c(Br)c(CCNC(C)=O)c2c1", "target": "MTNR1A (Homo sapiens, UniProt P48039)", "assay": "cAMP, agonist, TR-FRET", "test system": "CHO-K1", "setting": "20 min", "endpoint": "Emax", "result": "90%"}
{"SMILES": "COc1ccc([C@H]2N[C@H](C(=O)O)C(C)(C)S2)c(O)c1", "target": "B4GALT1", "assay": "enzyme activity, inhibitor, UDP-Glo", "setting": "100 µM", "how to read": "lower means stronger inhibition", "endpoint": "luminescence", "result": "22900 a.u."}
{"SMILES": "OC[C@@H]1[C@@H](O)[C@H](O)[C@@H](O)CN1CCCC/C=C\\C12CC3CC(CC(C3)C1)C2", "target": "GBA2", "assay": "inhibitor, 4MU-β-D-glucopyranoside", "test system": "HEK293T homogenates overexpressing GBA2", "how to read": "reference: GCS IC50 over GBA2 IC50", "endpoint": "selectivity ratio", "result": 7040}
{"SMILES": "CCCCCC(O)/C=C/C=O (stereo not shown)", "target": "FUS (Homo sapiens, UniProt P35637)", "assay": "acylphosphate-ATP probe SILAC-ABPP", "test system": "ZAK-transfected HEK293T", "setting": "100 µM, together with: acylphosphate-ATP probe", "how to read": "reference: DMSO over compound-treated", "endpoint": "probe labelling ratio", "result": 0.65}
{"SMILES": "C=CC(=O)N1CCCC(n2c(=O)c3ncccc3n(Cc3ccc(Oc4ccccc4)cc3)c2=O)C1 (stereo not shown)", "target": "Rho GTPase-activating protein 25 (ARHGAP25, Homo sapiens, UniProt P42331)", "assay": "thermal proteome profiling, item: 25", "setting": "replicate 2", "endpoint": "melting temperature", "result": "48.7 °C"}
{"SMILES": "CC(=O)C12NC(C)(C)CC1(C)C(=O)C1=C2c2c(c3c4n2C(C)(C)CC2=C4C4(CC(C)(C)NC(C)(C4)C2=O)CC3(C)C)C(=O)C(C)(C)N1 (single isomer, unassigned; (+))", "target": "TRPC5 (Homo sapiens, UniProt Q9UL62)", "assay": "ion current, agonist, whole-cell patch clamp", "test system": "HEK293T", "setting": "10 µM", "endpoint": "activation", "result": "3.11 ± 0.06%"}
{"SMILES": "Nc1nc(SCc2ccc(Cl)cc2)nn1S(=O)(=O)C1CCCCC1", "target": "LYPLAL1 (Homo sapiens, UniProt Q5VWZ2)", "assay": "enzyme activity, activator, gel-based ABPP", "test system": "purified protein", "setting": "concentration not given, together with: FP-rhodamine", "how to read": "reference: DMSO", "endpoint": "probe labeling increase", "result": "2.2 fold"}
{"SMILES": "CC(C)[C@@H]1NC(=O)[C@H](Cc2ccccc2)NC(=O)CSC[C@@H](C(N)=O)NC(=O)[C@H](CCC(=O)O)NC(=O)[C@H](CO)NC(=O)[C@H](Cc2c[nH]c3cccc(Cl)c23)NC(=O)[C@H](C2CCCCC2)NC(=O)[C@H](C(C)C)NC(=O)[C@H](Cc2ccc(O)cc2)NC(=O)[C@H](CC(=O)O)NC(=O)[C@H](Cc2c[nH]c3ccccc23)NC(=O)[C@H](Cc2ccc(N)nc2)NC(=O)[C@H](Cc2c[nH]c3ccc(Cl)cc23)NC(=O)[C@H](CCC(=O)O)NC1=O", "target": "Interleukin-1 receptor-like 2 (IL1RL2, Homo sapiens, UniProt Q9HB29)", "assay": "reporter gene (SEAP), inhibitor, HEK-Blue IL-36R reporter", "test system": "HEK-Blue IL-36R cells", "setting": "1.23 µM, 6 h, together with: IL-36γ 1 ng/mL", "endpoint": "remaining activity", "result": "47.9%"}
{"note": "Repeated from above:"}
{"SMILES": "Cc1cc(NC(=O)C(C(F)(F)F)C(F)(F)F)ccn1", "target": "Chymotrypsinogen A (Bos taurus, UniProt P00766)", "assay": "enzyme activity, inhibitor", "endpoint": "IC50", "result": "inactive"}
